Measurements gathered from unrelated publications.
Each numbered part is a random draw from the data of one study; scales do not carry over between parts.
Chain of UniProt P28566 (whole entry, looked up): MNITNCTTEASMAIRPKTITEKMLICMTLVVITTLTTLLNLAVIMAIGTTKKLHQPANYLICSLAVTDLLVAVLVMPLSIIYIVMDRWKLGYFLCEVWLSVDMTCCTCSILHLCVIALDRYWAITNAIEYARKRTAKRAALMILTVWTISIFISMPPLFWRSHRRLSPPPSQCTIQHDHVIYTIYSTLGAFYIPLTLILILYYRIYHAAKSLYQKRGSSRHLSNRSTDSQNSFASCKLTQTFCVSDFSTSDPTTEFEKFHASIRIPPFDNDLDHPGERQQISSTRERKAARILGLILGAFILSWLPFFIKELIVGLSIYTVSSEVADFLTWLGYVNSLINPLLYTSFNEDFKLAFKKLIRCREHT

Block 1
Target: Sal-like protein 4, full length isoform B (SALL4, Homo sapiens, UniProt Q9UJQ4-2, residues 1-616)
Method: universal PBM
Form: double-stranded DNA, one strand shown
Medium: in vitro
Tested at: not given
Notes: 8-mer, flanks averaged, mean of replicates
Reading: higher = stronger binding
Construct (chain): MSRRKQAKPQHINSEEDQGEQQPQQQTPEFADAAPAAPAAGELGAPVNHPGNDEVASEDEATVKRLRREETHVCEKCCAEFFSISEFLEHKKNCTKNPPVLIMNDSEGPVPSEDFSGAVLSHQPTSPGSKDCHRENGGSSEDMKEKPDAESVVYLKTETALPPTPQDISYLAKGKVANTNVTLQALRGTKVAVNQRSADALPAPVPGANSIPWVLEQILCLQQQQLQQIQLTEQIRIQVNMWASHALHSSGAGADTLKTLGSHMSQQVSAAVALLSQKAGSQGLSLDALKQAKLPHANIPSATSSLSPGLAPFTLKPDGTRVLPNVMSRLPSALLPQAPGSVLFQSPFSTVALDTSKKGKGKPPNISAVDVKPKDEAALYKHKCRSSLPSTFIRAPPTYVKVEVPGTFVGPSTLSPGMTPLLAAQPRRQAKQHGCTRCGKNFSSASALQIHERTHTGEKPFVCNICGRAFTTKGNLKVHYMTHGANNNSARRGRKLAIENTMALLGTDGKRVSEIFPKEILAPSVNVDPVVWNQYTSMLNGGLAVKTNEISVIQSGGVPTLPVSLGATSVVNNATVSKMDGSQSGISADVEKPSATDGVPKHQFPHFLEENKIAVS
Strand	E-score
ATCATTTA	0.339
AGCTGTCA	0.016
GACAGAAA	0.109
ATCGCACA	0.0889
CTACGTTC	0.00834
AAGAGCCG	-0.238
CGTCCCTC	-0.242
CACACACC	-0.0469

Block 2
Target: PABPC1L2, full length, GST fusion (mouse, UniProt A0ABA7IW68)
Method: RNAcompete
Form: RNA
Medium: in vitro
Tested at: 20 nM
Notes: 7-mer, probes averaged, single round
Baseline: mean of 7-mers
Reading: higher = stronger binding
Residues (chain): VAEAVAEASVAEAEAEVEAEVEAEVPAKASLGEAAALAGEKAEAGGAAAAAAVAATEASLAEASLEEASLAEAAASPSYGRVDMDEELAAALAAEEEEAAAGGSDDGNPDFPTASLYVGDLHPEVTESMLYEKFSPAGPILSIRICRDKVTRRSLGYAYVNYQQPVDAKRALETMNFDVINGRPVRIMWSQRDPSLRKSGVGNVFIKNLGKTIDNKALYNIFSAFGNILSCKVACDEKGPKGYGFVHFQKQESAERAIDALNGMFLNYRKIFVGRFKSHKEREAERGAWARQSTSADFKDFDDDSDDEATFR
Strand	7-mer Z-score
GCACUAA	0.0442
UCAAAGU	-0.0246
UAUAAUG	-0.0971
CCGGUCC	-0.369
CAAUCCU	-0.249
UCAACAA	0.254
AUCUAGG	-0.0228
GCUUCGG	-0.264

Block 3
Target: Histone acetyltransferase KAT6A, winged helix 2, GST fusion (KAT6A, Homo sapiens, UniProt Q92794, residues 85-181)
Method: protein binding microarray
Form: double-stranded DNA, one strand shown
Medium: in vitro
Tested at: not given
Notes: 8-mer, flanks averaged, mean of 2 arrays, mostly near background
Baseline: not given
Reading: higher = stronger binding
Residues (chain): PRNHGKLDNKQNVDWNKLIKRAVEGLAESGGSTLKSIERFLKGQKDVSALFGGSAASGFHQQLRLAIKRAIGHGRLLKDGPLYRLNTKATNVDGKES
Strand	E-score
GGACGGGA	-0.0242
GTCACTCA	0.0027
AAGTTTAC	0.0856
ACACCGGT	-0.12
AAAATTTA	0.0728
TAGCGAGA	0.0653
ACTGACTA	-0.156
AGTAGTGA	-0.094

Further values, each from its own experiment
Structure (SMILES)	target	read-out	tested at	endpoint	value
N#CN1CC[C@H](C(=O)Nc2nc3c(s2)CN(C(=O)CN=[N+]=[N-])CC3)C1	5-hydroxytryptamine receptor 1E (HTR1E, Homo sapiens, UniProt P28566)	cell-free assay	10 µM	inhibition	2.35%

A few entries again (block 2):
Strand	7-mer Z-score
CCGGUCC	-0.369
GCACUAA	0.0442
